Measurements collected from several papers.
Each numbered part is a random draw from the data of one study; scales do not carry over between parts. Positions count from the first letter of the parent shown.
UniProt Q96LR5, sequence (whole entry, looked up): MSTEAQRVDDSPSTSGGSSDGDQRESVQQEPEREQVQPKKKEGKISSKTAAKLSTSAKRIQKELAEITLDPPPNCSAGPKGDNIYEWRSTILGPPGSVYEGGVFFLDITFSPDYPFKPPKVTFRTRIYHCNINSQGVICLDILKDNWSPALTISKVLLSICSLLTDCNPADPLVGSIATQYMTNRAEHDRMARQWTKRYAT
UniProt Q13404, sequence (whole entry, looked up): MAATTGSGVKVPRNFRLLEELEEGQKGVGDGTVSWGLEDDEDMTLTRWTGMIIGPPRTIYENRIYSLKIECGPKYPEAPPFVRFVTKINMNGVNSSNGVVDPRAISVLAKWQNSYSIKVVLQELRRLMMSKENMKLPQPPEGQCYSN
UniProt O14933, sequence (whole entry, looked up): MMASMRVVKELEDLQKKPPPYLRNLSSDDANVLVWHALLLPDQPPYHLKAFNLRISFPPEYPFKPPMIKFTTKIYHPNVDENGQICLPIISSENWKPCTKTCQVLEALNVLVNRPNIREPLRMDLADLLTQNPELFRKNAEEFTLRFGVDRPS
UniProt P51965, sequence (whole entry, looked up): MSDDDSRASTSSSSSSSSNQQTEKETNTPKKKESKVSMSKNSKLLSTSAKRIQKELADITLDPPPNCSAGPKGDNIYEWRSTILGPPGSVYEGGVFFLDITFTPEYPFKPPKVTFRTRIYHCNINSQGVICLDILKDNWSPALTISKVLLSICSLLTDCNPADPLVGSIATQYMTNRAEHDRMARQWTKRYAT
UniProt P49427, sequence (whole entry, looked up): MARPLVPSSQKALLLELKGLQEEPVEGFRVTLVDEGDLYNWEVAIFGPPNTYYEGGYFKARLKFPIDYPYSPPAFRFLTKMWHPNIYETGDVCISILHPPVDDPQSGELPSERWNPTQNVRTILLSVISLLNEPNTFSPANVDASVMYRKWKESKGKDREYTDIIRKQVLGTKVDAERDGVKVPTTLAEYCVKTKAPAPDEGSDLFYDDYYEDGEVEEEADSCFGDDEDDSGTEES
UniProt P62256, sequence (whole entry, looked up): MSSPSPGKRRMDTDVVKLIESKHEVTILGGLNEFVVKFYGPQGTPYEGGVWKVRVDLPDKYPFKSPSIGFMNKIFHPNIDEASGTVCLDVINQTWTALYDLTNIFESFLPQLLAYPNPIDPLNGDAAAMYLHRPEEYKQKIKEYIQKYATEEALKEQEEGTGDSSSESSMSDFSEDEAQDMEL

Study 1 — Molecule: B1 (RLIM RING domain); method: yeast two-hybrid; medium: yeast; setting: mostly zero background; reference: not given; direction: higher = stronger interaction; quantity: lacZ reporter activity
B1: RLIM RING domain (UniProt Q9NVW2); chain SFGENDALKTCSVCITEYTEGNKLRKLPCSHEYHVHCIDRWLSENSTCPICRRAVLASGNRE
UBE2H UBC core domain (UniProt P62256): 0
UBE2E2 UBC core domain (UniProt Q96LR5): 0
CDC34 UBC core domain (UniProt P49427): 0
UBE2L6 UBC core domain (UniProt O14933): 0
UBE2E1 UBC core domain (UniProt P51965): 0
UBE2V1 UBC core domain (UniProt Q13404): 0

Study 2 — target: HLF, bZIP domain (human); method: DHFR protein complementation; medium: yeast; reference: wild-type JUN-FOS pair; direction: higher = stronger binding; quantity: binding fitness
Setting: single substitutions, most at no-binding floor
Starting sequence: JUN, bZIP domain (human); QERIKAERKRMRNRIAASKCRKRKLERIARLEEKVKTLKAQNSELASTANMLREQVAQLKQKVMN; partner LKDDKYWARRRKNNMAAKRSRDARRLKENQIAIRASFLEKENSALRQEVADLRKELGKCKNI
A46P: -1.57 natural log
K39D: -1.39 natural log
I28M: -1.38 natural log
A49D: -1.61 natural log
I28L: -1.39 natural log
T48Q: -1.45 natural log
E54Y: -1.4 natural log
R30K: -1.35 natural log

Other studies, line by line
P1: viral docking peptide; KGVKRKLFAEDSS; partner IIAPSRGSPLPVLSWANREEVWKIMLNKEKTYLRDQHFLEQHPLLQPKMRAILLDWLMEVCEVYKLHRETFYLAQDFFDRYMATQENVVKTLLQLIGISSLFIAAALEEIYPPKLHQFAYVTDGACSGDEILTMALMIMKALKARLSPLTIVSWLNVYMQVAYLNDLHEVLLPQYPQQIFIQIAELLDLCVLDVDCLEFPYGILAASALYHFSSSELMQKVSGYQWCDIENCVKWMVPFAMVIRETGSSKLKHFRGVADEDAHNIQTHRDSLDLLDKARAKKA
PDIA3 (Homo sapiens, UniProt P30101)
cross-linked residues (PCDHB16 (Homo sapiens, UniProt Q9NRJ7); cross-linking MS; cell fractions; added: DHSO): E372 to E729

P1 V3P
normalised enrichment score (CCNE1, cyclin fold, Cln2 fusion (human); yeast growth competition, sequencing; yeast; strong parent motif; reference: not given, higher = stronger binding): 7.01
